Measured values gathered from unrelated publications.
Numbers after ± are the reported error.

CCCCCCCCCCCCCCCC(=O)N[C@@H](CCC(=O)NCCOCCOCCC(=O)NCCOCCOCCC(=O)NCCCC[C@H](NC(=O)[C@H](CC(=O)O)NC(=O)[C@H](CC(C)C)NC(=O)[C@H](Cc1ccc(O)cc1)NC(=O)[C@H](CCCCN)NC(=O)[C@H](CO)NC(=O)[C@H](Cc1ccc(O)cc1)NC(=O)[C@H](CC(=O)O)NC(=O)[C@H](CO)NC(=O)[C@@H](NC(=O)[C@H](Cc1ccccc1)NC(=O)[C@@H](NC(=O)CNC(=O)[C@H](CCC(N)=O)NC(=O)[C@@H](CO)NC(=O)[C@@H](N)Cc1c[nH]cn1)[C@@H](C)O)[C@@H](C)O)C(=O)N[C@@H](CCCNC(=N)N)C(=O)N[C@@H](CCCNC(=N)N)C(=O)N[C@@H](C)C(=O)N[C@@H](CCC(N)=O)C(=O)N[C@@H](CC(=O)O)C(=O)N[C@@H](Cc1ccccc1)C(=O)N[C@H](C(=O)N[C@@H](CCC(N)=O)C(=O)N[C@@H](Cc1c[nH]c2ccccc12)C(=O)N[C@@H](CC(C)C)C(=O)N[C@@H](CC(C)C)C(=O)N[C@@H](CC(N)=O)C(=O)N[C@H](C(=O)NCC(=O)NCC(=O)N1CCC[C@H]1C(=O)N[C@@H](CO)C(=O)N[C@@H](CO)C(=O)NCC(=O)N[C@@H](C)C(=O)N1CCC[C@H]1C(=O)N1CCC[C@H]1C(=O)N1CCC[C@H]1C(=O)N[C@@H](CO)C(N)=O)[C@@H](C)O)C(C)C)C(=O)O
liver fibrosis (histology; Sprague-Dawley rat ANIT model; 20 and 40 µg/kg every 2 days): decreased

Cc1cc(/C=C/C#N)cc(C)c1-n1cnc2cnc(Nc3ccc(C#N)cc3)nc21
EC50 (HIV-1; viral replication, single-round infection; RT mutant P236L): 0.2 ± 0.04 nM

Nc1ccn(C2CCC(OC(C(=O)O)P(=O)(O)O)C2)c(=O)n1 (racemic)
fold resistance (HIV-1 reverse transcriptase E138K; enzyme activity, inhibitor; together with: poly(rI)·oligo(dC), [3H]dCTP; reference: mutant over wild type): 1.5 fold

O=C(NCc1ccc(F)cc1F)c1cn2c(c(O)c1=O)C(=O)N(CCCCCCO)CC2
EC50 (human immunodeficiency virus 1; single-round vector infection; integrase N155H): 35.9 ± 1.1 nM

C[C@@H]1Cc2ccc(C(=O)N[C@@H](Cc3ccccc3)C(=O)O)c(O)c2C(=O)O1
IC50 (HK-2; cell growth or viability): 37900 nM

CC[C@H](C)[C@H](NC(=O)[C@H](CCCCN)NC(=O)[C@H](CCCCN)NC(=O)[C@H](CC(C)C)NC(=O)[C@H](Cc1c[nH]c2ccccc12)NC(=O)CN)C(=O)NCC(=O)N[C@@H](CCCCN)C(=O)N[C@@H](CCCCN)C(=O)N[C@H](C(=O)N[C@@H](CCC(=O)O)C(=O)N[C@@H](CCCNC(=N)N)C(=O)N[C@H](C(=O)NCC(=O)N[C@@H](CCC(N)=O)C(=O)N[C@@H](Cc1c[nH]cn1)C(=O)N[C@H](C(=O)N[C@@H](CCCNC(=N)N)C(=O)N[C@@H](CC(=O)O)C(=O)N[C@@H](C)C(=O)N[C@H](C(=O)N[C@H](C(=O)N[C@@H](CCC(N)=O)C(=O)N[C@H](C(=O)N[C@H](C(=O)NCC(=O)N[C@H](C(=O)N[C@@H](C)C(=O)N[C@@H](CCC(N)=O)C(=O)N[C@@H](CCC(N)=O)C(=O)N[C@@H](C)C(=O)N[C@@H](C)C(=O)N[C@@H](CC(N)=O)C(=O)N[C@H](C(=O)N[C@@H](C)C(=O)N[C@@H](C)C(=O)N[C@H](C(=O)N[C@@H](CC(C)C)C(=O)N[C@@H](CCCCN)C(N)=O)[C@@H](C)O)C(C)C)C(C)C)[C@@H](C)CC)[C@@H](C)O)[C@@H](C)CC)[C@@H](C)O)[C@@H](C)O)C(C)C)[C@@H](C)CC
MIC (Klebsiella pneumoniae; isolate RKI 19/16, CAMHB): 16 µg/mL

COc1c(/C=C/C(=O)c2ccc(O)cc2)ccc(O)c1O
inhibition (viral replication; SARS-CoV-2 trVLP system; 100 µM): > 90%

CN1CCn2cc(C(=O)NCc3ccc(F)cc3F)c(=O)c(O)c2C1=O
EC50 (human immunodeficiency virus 1; single-round vector infection; integrase R263K): 12.8 ± 2.2 nM

Cc1cc(/C=C/C#N)cc(C)c1Nc1nc(Nc2ccc(C#N)cc2)ncc1N
EC50 (HIV-1; viral replication, single-round infection; RT mutant V106A): 0.3 ± 0.03 nM

CC(C)n1ccn2cc(C(=O)NCc3ccc(F)cc3F)c(=O)c(O)c2c1=O
EC50 (HIV-1; viral replication, single-round vector infection; IN G140S/Q148R): 15.3 ± 1 nM

ivermectin
viral replication (human adenovirus C5; reporter gene; A549; 5 µM, 72 h, together with: digitoxin; reference: DMSO control): 78.8 ± 9.17%

CC(C)N1CCn2cc(C(=O)NCc3ccc(F)cc3F)c(=O)c(O)c2C1=O
EC50 (HIV-1; viral replication, single-round vector infection; IN G140S/Q148R): 11.3 ± 0.7 nM

C=C(C)C[C@H](OC)[C@H](O)C(=O)N[C@@H](OC)[C@@H]1CC(=O)C(C)(C)[C@@H](C[C@H](O)[C@@H](C)[C@H]2Cc3c(C)c(O)cc(O)c3C(=O)O2)O1
IC50 (HCT-116; cell growth or viability): 3 nM

COCCCN1CCn2cc(C(=O)NCc3ccc(F)cc3F)c(=O)c(O)c2C1=O
EC50 (human immunodeficiency virus 1; single-round vector infection; integrase S230N): 6.6 ± 0.3 nM

CC[C@H](C)[C@H](NC(=O)[C@H](CCCCN)NC(=O)[C@H](Cc1c[nH]c2ccccc12)NC(=O)[C@H](CC(C)C)NC(=O)[C@H](CC(C)C)NC(=O)[C@H](CC(=O)O)NC(=O)[C@@H](NC(=O)[C@H](CCCNC(=N)N)NC(=O)[C@H](CCC(=O)O)NC(=O)[C@H](CCCNC(=N)N)NC(=O)[C@H](CC(=O)O)NC(=O)[C@H](CC(C)C)NC(C)=O)[C@@H](C)CC)C(=O)N[C@@H](C)C(=O)N[C@@H](CCCNC(=N)N)C(=O)N[C@@H](C)C(=O)NCC(=O)N[C@@H](C)C(=O)N[C@@H](CCCNC(=N)N)C(=O)N[C@@H](CO)C(=O)N[C@@H](C)C(=O)N[C@H](C(=O)NCC(N)=O)C(C)C
membrane partition coefficient (far-UV CD; POPC/POPG/chol 7:2:1 SUV; pH 7.5, 25 °C): 25000 ± 2000

CC[C@H](C)[C@H](NC(=O)[C@H](CCCCN)NC(=O)[C@H](Cc1ccc(O)cc1)NC(=O)[C@H](CCC(N)=O)NC(=O)[C@H](Cc1c[nH]cn1)NC(=O)[C@@H](NC(=O)[C@H](Cc1ccccc1)NC(=O)[C@H](Cc1c[nH]cn1)NC(=O)[C@@H](NC(=O)[C@@H](NC(=O)CNC(=O)[C@H](CCCNC(=N)N)NC(=O)[C@H](Cc1c[nH]c2ccccc12)NC(=O)[C@H](CC(C)C)NC(=O)[C@H](CO)NC(=O)[C@H](CCC(=O)O)NC(=O)[C@H](CC(C)C)NC(=O)[C@H](CCC(=O)O)NC(=O)[C@H](CC(N)=O)NC(=O)[C@H](CC(C)C)NC(=O)[C@H](CC(=O)O)NC(=O)[C@H](CO)NC(=O)[C@H](CCC(=O)O)NC(=O)[C@@H](NC(=O)[C@H](CC(C)C)NC(=O)[C@H](CCC(N)=O)NC(=O)[C@H](CCC(=O)O)NC(=O)[C@H](CCC(=O)O)NC(=O)[C@H](CC(C)C)NC(=O)[C@@H]1CCCN1C(=O)[C@@H](N)Cc1ccccc1)[C@@H](C)O)[C@@H](C)O)[C@@H](C)O)C(C)C)C(=O)N[C@@H](CCSC)C(=O)N1CCC[C@H]1C(=O)N[C@@H](Cc1ccccc1)C(=O)N[C@@H](CCCNC(=N)N)C(=O)N[C@@H](CCCCN)C(=O)N[C@@H](CC(C)C)C(=O)N[C@H](C(=O)N[C@@H](Cc1ccccc1)C(=O)N[C@@H](CCCCN)C(=O)N[C@@H](CCCNC(=N)N)C(=O)N[C@@H](CCCNC(=N)N)C(=O)N[C@@H](CCCCN)C(=O)N[C@@H](CC(N)=O)C(N)=O)C(C)C
MIC (Mycolicibacterium smegmatis; ATP luminescence; ATCC 607; 48 h): > 50 µM

Excerpt of the above:
CC[C@H](C)[C@H](NC(=O)[C@H](CCCCN)NC(=O)[C@H](CCCCN)NC(=O)[C@H](CC(C)C)NC(=O)[C@H](Cc1c[nH]c2ccccc12)NC(=O)CN)C(=O)NCC(=O)N[C@@H](CCCCN)C(=O)N[C@@H](CCCCN)C(=O)N[C@H](C(=O)N[C@@H](CCC(=O)O)C(=O)N[C@@H](CCCNC(=N)N)C(=O)N[C@H](C(=O)NCC(=O)N[C@@H](CCC(N)=O)C(=O)N[C@@H](Cc1c[nH]cn1)C(=O)N[C@H](C(=O)N[C@@H](CCCNC(=N)N)C(=O)N[C@@H](CC(=O)O)C(=O)N[C@@H](C)C(=O)N[C@H](C(=O)N[C@H](C(=O)N[C@@H](CCC(N)=O)C(=O)N[C@H](C(=O)N[C@H](C(=O)NCC(=O)N[C@H](C(=O)N[C@@H](C)C(=O)N[C@@H](CCC(N)=O)C(=O)N[C@@H](CCC(N)=O)C(=O)N[C@@H](C)C(=O)N[C@@H](C)C(=O)N[C@@H](CC(N)=O)C(=O)N[C@H](C(=O)N[C@@H](C)C(=O)N[C@@H](C)C(=O)N[C@H](C(=O)N[C@@H](CC(C)C)C(=O)N[C@@H](CCCCN)C(N)=O)[C@@H](C)O)C(C)C)C(C)C)[C@@H](C)CC)[C@@H](C)O)[C@@H](C)CC)[C@@H](C)O)[C@@H](C)O)C(C)C)[C@@H](C)CC
MIC (Klebsiella pneumoniae; isolate RKI 19/16, CAMHB): 16 µg/mL

COc1c(/C=C/C(=O)c2ccc(O)cc2)ccc(O)c1O
inhibition (viral replication; SARS-CoV-2 trVLP system; 100 µM): > 90%
